Assay results pooled from the literature.

Structure (SMILES) | test system | conditions | AUC(0-tau)
CNC(=O)c1cc(Oc2ccc(NC(=O)Nc3ccc(Cl)c(C(F)(F)F)c3)cc2)ccn1 | human patients, plasma | oral, dose not given, added: tanespimycin | 85 µM·h
C=C(C)[C@@H]1CC[C@]2(NCCN3CCS(=O)(=O)CC3)CC[C@]3(C)[C@H](CC[C@@H]4[C@@]5(C)CC=C(C6=CC[C@@](CF)(C(=O)O)CC6)C(C)(C)[C@@H]5CC[C@]43C)[C@@H]12 | human | oral, 50 mg once daily, day 14, multiple ascending dose | 6280 ng·h/mL
Cc1cc(C)c2c(c1)[C@@H](N(Cc1cc(C(F)(F)F)cc(C(F)(F)F)c1)c1nnn(C)n1)CCCN2C[C@H]1CC[C@H](C(=O)O)CC1 | healthy humans, plasma | oral, 130 mg once daily, day 22, geometric mean, added: gemfibrozil 600 mg twice daily | 11400 ng·h/mL
Cc1nc(-c2ccc(OCC(C)C)c(C#N)c2)sc1C(=O)O | human, plasma | oral, dose not given, day 7, geometric mean, added: verinurad | 7910 ng·h/mL
COc1cc(Nc2ncc3c(n2)-c2ccc(Cl)cc2C(c2c(F)cccc2OC)=NC3)ccc1C(=O)O | human, plasma | oral, 60 mg twice daily, day 7, steady state | 28.7 µM·h
Nc1ccn([C@@H]2O[C@H](CO)[C@@H](O)C2(F)F)c(=O)n1 | human, plasma | intravenous, 600 mg/m2, cycle 1 day 1, added: lonafarnib 200 mg twice daily | 4140 ng·h/mL
O=c1[nH]c(=O)c(Cc2cccc(C(F)(F)F)c2)c([C@H]2CC[C@H](c3ccccc3)CC2)[nH]1 | human, plasma | oral, 900 mg once daily, day 14, geometric mean | 11700 ng·h/mL
C[C@@H]1CCC[C@H](n2cnc(-c3cc(Cl)ccc3-n3cc(Cl)nn3)cc2=O)c2cc(ccn2)-c2c(cnn2C(F)F)NC1=O | human, fasted | 35 mg twice daily, day 1 | 1360 ng·h/mL
COc1ccc(-c2c(Nc3ccccn3)[nH]c3c(C4=CCCCC4)c(-c4ccccc4)nn3c2=O)cc1 | human, plasma | oral, 400 mg once daily, cycle 1 day 15, multiple dosing, geometric mean, tau 24 h | 57300 ng·h/mL
COCCCCn1c(C(=O)N(CC(C)C)[C@@H]2CNC[C@H](C(=O)N3CCOCC3)C2)nc2ccccc21 | non-elderly human, plasma | oral, 160 mg once daily, day 7 | 9530 ng·h/mL

A few entries again:
Structure (SMILES) | test system | conditions | AUC(0-tau)
CNC(=O)c1cc(Oc2ccc(NC(=O)Nc3ccc(Cl)c(C(F)(F)F)c3)cc2)ccn1 | human patients, plasma | oral, dose not given, added: tanespimycin | 85 µM·h
